# Measurements from different studies.
# Each line is one published result; not all experiments were run side by side. Values joined by “and” are separate records of one study, mostly repeats; a detail may differ. ± marks the error that the study gave.
SMILES,assay,test system,conditions,how to read,measurement,value
CC[C@H](C)[C@H](NC(=O)[C@H](CCCCN)NC(=O)[C@H](CCC(=O)O)NC(=O)[C@H](CCCCN)NC(=O)[C@H](CO)NC(=O)[C@H](CCCCN)NC(=O)[C@H](CCCNC(=N)N)NC(=O)[C@H](Cc1ccccc1)NC(=O)[C@H](Cc1ccccc1)NC(=O)[C@H](CC(=O)O)NC(=O)CNC(=O)[C@H](CC(C)C)NC(=O)[C@@H](N)CC(C)C)C(=O)NCC(=O)N[C@@H](CCCCN)C(=O)N[C@@H](CCC(=O)O)C(=O)N[C@@H](Cc1ccccc1)C(=O)N[C@@H](CCCCN)C(=O)N[C@@H](CCCNC(=N)N)C(=O)N[C@H](C(=O)N[C@H](C(=O)N[C@@H](CCC(N)=O)C(=O)N[C@@H](CCCNC(=N)N)C(=O)N[C@H](C(=O)N[C@@H](CCCCN)C(=O)N[C@@H](CC(=O)O)C(=O)N[C@@H](Cc1ccccc1)C(=O)N[C@@H](CC(C)C)C(=O)N[C@@H](CCCNC(=N)N)C(=O)N[C@@H](CC(N)=O)C(=O)N[C@@H](CC(C)C)C(=O)N[C@H](C(=O)N1CCC[C@H]1C(=O)N[C@@H](CCCNC(=N)N)C(=O)N[C@H](C(=O)N[C@@H](CCC(=O)O)C(=O)N[C@@H](CO)C(=O)O)[C@@H](C)O)C(C)C)[C@@H](C)CC)C(C)C)[C@@H](C)CC,LC-MS,50% pooled human serum,"40 µM, 60 min, pH 7.5, 37 °C",relative to: 0 h,remaining intact peptide,3.22% and 4.18%
COc1ccc2nc3cc(Cl)ccc3c(Nc3cc(CN4CCCC4)c(O)c(CN4CCCC4)c3)c2n1,,"mouse, blood","intraperitoneal, 14 mg/kg",,platelet count,98.3 10⁹/L
O=S(=O)(Nc1ccccc1)c1ccc(NC(=S)Nc2ccccc2)cc1,measured: TRIG,"male mouse, blood","oral, 5 mg/kg daily, 14 days",,blood chemistry level,214 mg/dL
Oc1c(Cl)cc2c(c1Cl)Oc1cc(Cl)c(Cl)cc1O2,ultrafiltration,cow milk whey,100 nM nominal in whole milk,,dose fraction in permeate,17.1%
Cn1cc(-c2nc(N[C@@H]3CCCC[C@@H]3N)c(F)c3c2C(=O)NC3)cn1,measured: Rectal haemorrhage,patients with relapsed or refractory AML,"oral, 100 mg once daily",,hemorrhagic adverse events,14%
CCC[C@@](N)(CO)CCc1ccc(OCCCCCC(C)C)cc1,,dog,"oral, 5 mg/kg",,AUC(0-inf),11.3 µM·h
C[C@]1(CO)Cc2ncn(-c3ccc(C#N)c(Cl)c3)c2C(=O)O1,,healthy European subjects,"dose not given, single dose, all doses",,drug-related orthostatic hypotension,2.1%
C[C@H]1COCCN1c1nc(NCc2cccnc2C(F)(F)F)c2cccnc2n1,,BALB/c mice,"intravenous, 5 mg/kg",,AUC(0-24 h),10700 ng·h/mL
O=C(Nc1ccccc1)C1CCN(C(=O)Oc2cccnc2)CC1,measured: Diarrhea,healthy female human,"concentration not given, all doses pooled",,adverse event incidence,13%
CC(C)C[C@H](NC(=O)[C@H](CCCCN)NC(=O)OCC1c2ccccc2-c2ccccc21)C(=O)N[C@H](C(=O)N[C@@H](Cc1ccccc1)C(=O)N[C@@H](Cc1ccccc1)C(=O)N[C@@H](CCCCN)C(=O)NCC(=O)N[C@@H](Cc1ccccc1)C(=O)N[C@@H](C)C(=O)N[C@@H](Cc1c[nH]c2ccccc12)C(=O)N[C@@H](CC(N)=O)C(=O)N[C@H](C(=O)N[C@H]1CSSC[C@@H](C(=O)N[C@@H](Cc2c[nH]cn2)C(=O)N[C@@H](CCCNC(=N)N)C(=O)N[C@@H](CCCNC(=N)N)C(=O)N[C@@H](C)C(=O)N[C@@H](CC(N)=O)C(N)=O)NC(=O)[C@H](C(C)C)NC(=O)[C@H](CCCNC(=N)N)NC(=O)[C@H](C(C)C)NC(=O)CNC(=O)[C@H](CC(N)=O)NC(=O)[C@H](CCCNC(=N)N)NC(=O)[C@H](Cc2ccc(O)cc2)NC(=O)[C@H](C(C)C)NC1=O)C(C)C)C(C)C,,"ICR mice, blood","intraductal mammary, 5 mg/kg, day 5",,monocytes,2.96 ± 0.38%
CC(C)Nc1ccnc(Nc2cccc(-c3cccnc3)c2)n1,measured: Glucose,"mouse, blood","intraperitoneal, 10 mg/kg",,blood chemistry,133 mg/dL
CC1(C)C(/C=C(\Cl)C(F)(F)F)C1C(=O)OC(C#N)c1cccc(Oc2ccccc2)c1 (stereo not drawn),measured: CYP2C8,"human, age 6 months",,,enzyme contribution to clearance,0.09%
C[C@@H](NC(=O)N1C(=O)[C@H](Cc2ccnc(N)c2)[C@H]1C(=O)O)C1CCCCC1,,healthy adult Chinese volunteers,"continuous intravenous infusion, 0.6 mg/kg/h, 5-day infusion, CTCAE 5.0 grading",,incidence of urine erythrocyte positive,0%
C=CC(=O)N1CC[C@H](n2nc(C#Cc3cc(OC)cc(OC)c3)c3c(N)ncnc32)C1,,patients with advanced solid tumours,"oral, dose not given, Nausea, any grade, QD, with: ferric citrate hydrate",,adverse drug reaction incidence,0%
COc1c(OCCCN2CCOCC2)ccc2c1N=C(NC(=O)c1cnc(N)nc1)N1CCN=C21,,patients with advanced malignancies,"intravenous, dose not given, all grades, all cohorts, with: gemcitabine",,abdominal pain incidence,22%
CCc1ccc(CC/C=C/c2ccc3c(c2)C(=O)CC3)cc1,,"Sprague-Dawley rat, male","oral, 450 mg/kg/day, 14 days",,Basophil percentage,0.27%
COc1ccc([C@@H](O)c2cc(-c3ncnc4cc(N5CCOCC5)ccc34)c(F)cc2Cl)nn1,,"patients, advanced solid tumours","oral, 200 mg twice daily, treatment-emergent, with: avelumab",,gastrointestinal disorders incidence,10%
CN[C@@H](C)C(=O)N[C@H]1CN(S(=O)(=O)c2cccc(S(=O)(=O)N3CC[C@H]4CC[C@@H](C(=O)NC(c5ccccc5)c5ccccc5)N4C(=O)[C@@H](NC(=O)[C@H](C)NC)C3)c2)CC[C@H]2CC[C@@H](C(=O)NC(c3ccccc3)c3ccccc3)N2C1=O,,patients with advanced solid tumours,"45 mg, phase I monotherapy",,treatment-related ALT elevation incidence,20%
COc1cc2c(Oc3ccc4[nH]c(C)cc4c3F)ccnc2cc1OCC1(N)CC1,,paediatric recurrent refractory sarcoma,10 mg,,Neutropenia incidence,0%
N[C@@H]1c2ccccc2OC12CCN(c1cnc3c(N4CCCc5ncccc54)n[nH]c3n1)CC2,,advanced metastatic solid tumour patients,"oral, 10 mg once daily",,TEAE leading to interruption,0%
C1=Cc2nc1cc1ccc([n-]1)c(C1CC1)c1nc(cc3ccc([n-]3)c2C2CC2)C=C1.CC(=O)[O-].[Mn+3],LC-MS/MS,"Sprague-Dawley rat, plasma","oral gavage, dose not given, 60 min",,plasma concentration,424 ng/mL and 317 ng/mL
COc1ccc(CCC2CCCC(CCc3ccc(OC)cc3)N2C[C@@H](O)CO)cc1.Cl (stereo in doubt),,rabbit Purkinje fibres,"0.3 µM, cycle length 0.5 s",relative to: baseline,Vmax change,-2.5 ± 4.5%
CC(C)CC(=O)OC[C@H]1O[C@@](C#N)(c2ccc3c(N)ncnn23)[C@H](O)[C@@H]1O,,rat whole blood,"5 µM, 15 min",,remaining compound,0.038 ± 0.014%
C#C[C@]1(CO)O[C@@H](n2cnc3c(N)nc(F)nc32)C[C@@H]1O,,"rat, plasma","oral, 50 mg/kg/day, 29 days",,Cmax at NOAEL,18.9 µM
NC(=O)[C@H]1CCN(c2ncnc(N)c2F)C[C@@H]1N1CCC[C@@H](Nc2cc(Cl)cc(C(F)(F)F)c2)C1=O,,B-cell malignancy patients,"oral, 20.5 mg twice daily, dose",,grade ≥3 lymphopenia,33%
COc1cc(Nc2ncc(F)c(Nc3ccc4c(n3)NC(=O)C(C)(C)O4)n2)cc(OC)c1OC,,kinase assay buffer,"24 h, 1% DMSO",,solubility,121 µM
CCNCCCNC/C=C\CNCCCNCC,,"human, advanced solid tumours","intravenous, dose not given",relative to: patients,"drug-related TEAE, respiratory disorders",8.7%
O=C1Nc2cc3[nH]nc(-c4ccncc4)c3cc2CN1Cc1ccccc1,CTCAE v4.03,"human, relapsed or refractory advanced solid tumours","intravenous, 9.6 mg/kg, pooled schedules",,patients with subretinal fluid,33%
O=C(CCCCCCC(=O)Nc1ccccc1)NO,phase 1 dose escalation,patients with advanced solid malignancies,"oral, with: bortezomib 1.3 mg/m^2 iv",,MTD,300 mg
CO[C@H]1C[C@@H]2CC[C@@H](C)[C@@](O)(O2)C(=O)C(=O)N2CCCC[C@H]2C(=O)O[C@H]([C@H](C)C[C@@H]2CC[C@@H](OC(=O)NCCOCCOCCOCCOCCOCCOCCOCCOCCC(=O)N3CCc4cc(Cn5nc(-c6ccc7oc(N)nc7c6)c6c(N)ncnc65)ccc4C3)[C@H](OC)C2)C[C@@H](O)[C@H](C)/C=C(\C)[C@@H](O)[C@@H](OC)C(=O)[C@H](C)C[C@H](C)/C=C/C=C/C=C/1C,,patients with advanced solid tumours,"intravenous, 1.6 mg/3 mg weekly, any grade",,Neutropenia AE leading to dose reduction,0%
O=C(Nc1ccccc1)C1CCN(C(=O)Oc2cccnc2)CC1,measured: ear and labyrinth disorders,healthy women,"oral, 60 mg, 7 days",,subjects with adverse event,0%
CC[C@H](C)[C@H](NC(=O)[C@H](Cc1ccccc1)NC(=O)[C@H](CCC(=O)O)NC(=O)[C@H](CCCNC(=N)N)NC(=O)[C@H](C)NC(=O)[C@H](C)NC(=O)[C@H](CCC(N)=O)NC(=O)[C@H](CCC(=O)O)NC(=O)[C@H](CCC(=O)O)NC(=O)[C@H](CC(C)C)NC(=O)[C@H](Cc1ccc(O)cc1)NC(=O)[C@H](CO)NC(=O)[C@H](CO)NC(=O)[C@@H](NC(=O)[C@H](CC(=O)O)NC(=O)[C@H](CO)NC(=O)[C@@H](NC(=O)[C@H](Cc1ccccc1)NC(=O)[C@@H](NC(=O)CNC(=O)[C@H](CCC(=O)O)NC(=O)[C@H](C)NC(=O)CCc1cnc[nH]1)[C@@H](C)O)[C@@H](C)O)C(C)C)C(=O)N[C@@H](C)C(=O)N[C@@H](Cc1c[nH]c2ccccc12)C(=O)N[C@@H](CC(C)C)C(=O)N[C@H](C(=O)N[C@@H](CCCNC(=N)N)C(=O)NCC(=O)N[C@@H](CCCNC(=N)N)C(=O)N[C@@H](CCCCNC(=O)COCCOCCNC(=O)COCCOCCNC(=O)CC[C@H](NC(=O)CCCCCCCCCCCCCCCCC(=O)O)C(=O)O)C(=O)NCC(=O)NCC(=O)N[C@@H](CO)C(=O)N[C@@H](CCCCNC(=O)[C@H](CCCCNc1c(NCCCCCN(O)C(=O)CCC(=O)NCCCCCN(O)C(=O)CCC(=O)NCCCCCN(O)C(C)=O)c(=O)c1=O)Nc1c(NCCCCCN(O)C(=O)CCC(=O)NCCCCCN(O)C(=O)CCC(=O)NCCCCCN(O)C(C)=O)c(=O)c1=O)C(=O)O)C(C)C [zirconium-89 labelled],ex vivo gamma counting,"male Sprague-Dawley rats, colon","intravenous, 1 nmol, 24 h",,tissue uptake,0.25 %ID/g
N.N.[Cl][Pt][Cl],,"mice, serum",dose not given,,AST,132 IU/L
